{"data": "Measurements pooled from the literature", "GBA1 R534H": "Lysosomal acid glucosylceramidase (GBA1, Homo sapiens, UniProt P04062, R534H)", "note": "± gives the spread as reported.", "sequence of UniProt P04062 (whole entry, unmodified, looked up)": "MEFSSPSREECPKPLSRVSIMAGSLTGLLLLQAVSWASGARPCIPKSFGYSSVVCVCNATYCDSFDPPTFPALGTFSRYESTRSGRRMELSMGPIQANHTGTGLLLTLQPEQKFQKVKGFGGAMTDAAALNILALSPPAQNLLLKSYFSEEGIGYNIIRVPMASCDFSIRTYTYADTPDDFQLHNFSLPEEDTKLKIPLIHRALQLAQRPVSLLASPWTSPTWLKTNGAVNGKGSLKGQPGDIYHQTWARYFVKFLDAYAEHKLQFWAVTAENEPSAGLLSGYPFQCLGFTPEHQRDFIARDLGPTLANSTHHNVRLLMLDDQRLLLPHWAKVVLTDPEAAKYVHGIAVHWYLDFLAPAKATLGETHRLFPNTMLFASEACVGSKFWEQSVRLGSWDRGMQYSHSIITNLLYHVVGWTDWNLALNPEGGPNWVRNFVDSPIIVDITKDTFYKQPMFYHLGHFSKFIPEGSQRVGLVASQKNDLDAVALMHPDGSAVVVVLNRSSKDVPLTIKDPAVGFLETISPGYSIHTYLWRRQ"}
{"Structure (SMILES)": "COC1CN([C@H]2CC[C@H]([C@@]3(C)Oc4c(Cl)cc(C(=O)NCc5c(SC)cc(C)[nH]c5=O)c(C)c4O3)CC2)C1", "assay": "RNA-seq, refers to: NDNF", "test system": "human, whole blood", "setting": "dose not given, 24 h", "scale": "reference: pretreatment baseline", "measurement": "log2 fold change", "value": 7.43}
{"Structure (SMILES)": "C=C(NC(=O)c1csc(-c2nc3c(cc2O)-c2nc(cs2)C(=O)NC(C(C)O)C(=O)NC(=C(C)OC)c2nc(cs2)C(=O)NC2c4nc(cs4)C(=O)NC(COC(=O)c4c5c6c(cccc6n4O)COC(=O)C(OC4CC(C)(O)C(N(C)C)C(C)O4)C2OC5)c2nc-3cs2)n1)C(N)=O (stereo not drawn)", "tested on": "Streptococcus pneumoniae", "test system": "-4, immunocompromised mice, lung infection, lung", "setting": "32 mg/kg/day three times daily, 24 h post-dose", "measurement": "bacterial load", "value": "3.7 log CFU/g"}
{"Structure (SMILES)": "CCN(CC)CC(=O)Nc1cccc(-n2cc(-c3ccc4ccc(-c5cn(-c6cccc(NC(=O)CN(CC)CC)c6)nn5)cc4c3)nn2)c1", "tested on": "RCC4", "assay": "PCR angiogenesis array, refers to: IL1B", "setting": "5 x IC50, 4 h, normoxia", "scale": "reference: untreated", "measurement": "fold regulation", "value": -1.71}
{"Structure (SMILES)": "OC(COc1ccc2cc(Br)ccc2c1)Cn1ccnc1 (stereo not drawn)", "tested on": "Trypanosoma cruzi", "assay": "reporter mRNA translation, inhibitor, refers to: capped polyadenylated Renilla luciferase mRNA", "test system": "cell-free extract", "setting": "concentration not given", "scale": "reference: control RNA", "measurement": "relative translation", "value": "110%"}
{"Structure (SMILES)": "O=c1[nH]cc(C(c2cccc(C(F)(F)F)c2)c2c[nH]c(=O)[nH]c2=O)c(=O)[nH]1", "tested on": "HIV-1 subtype C", "assay": "p24 antigen production, p24 ELISA", "setting": "500 µg/mL", "measurement": "inhibition", "value": "63%"}
{"Structure (SMILES)": "Nc1ncc(-c2cc(-c3cnn(CC(F)(F)F)c3)ncc2F)nc1C(=O)NC1CNCC(F)C1 (stereo not drawn)", "tested on": "EPHB4", "assay": "KINOMEscan", "setting": "1 µM", "scale": "reference: DMSO control", "measurement": "remaining binding", "value": "100%"}
{"Structure (SMILES)": "COc1cc(O)ccc1CCC(c1ccc(O)cc1)c1cc2c(c(C)c1O)OC(c1ccc(O)cc1)CC2 (mixture of isomers)", "test system": "human blood", "setting": "3 µM, together with: A23187", "measurement": "arachidonic acid level", "value": "86700 ± 4320 pg/mL"}
{"Structure (SMILES)": "CNS(=O)(=O)Nc1nccc(Cc2c(C)c3ccc(Oc4ncccc4F)cc3oc2=O)c1F", "tested on": "NCI-H1573", "assay": "cell viability", "setting": "7 days", "measurement": "IC50", "value": "29.7 nM"}
{"Structure (SMILES)": "CC1=C[C@@H](O/C=C2/C(=O)O[C@@H]3c4ccccc4C[C@H]23)OC1=O", "tested on": "Phelipanche ramosa", "assay": "seed germination, stimulant", "test system": "seeds", "setting": "1 µM", "scale": "reference: (±)-GR24", "measurement": "maximum germination stimulation", "value": "100%"}
{"Structure (SMILES)": "O=C(C1=C[C@H](C2CCCCC2)C[C@H](OCc2ccc(CO)cc2)O1)N1CCN(Cc2ccc3c(c2)OCO3)CC1", "tested on": "Trypanosoma cruzi", "assay": "reporter mRNA translation, inhibitor, refers to: capped polyadenylated Renilla luciferase mRNA", "test system": "cell-free extract", "setting": "concentration not given", "scale": "reference: control RNA", "measurement": "relative translation", "value": "101%"}
{"Structure (SMILES)": "CN1CCCNC(=O)c2cccc(c2)C(=O)NCCCN(C)CCCNc2cccc3c2C(=O)c2cccc(c2C3=O)NCCC1", "tested on": "SAS", "assay": "RNA-Seq, refers to: IRAK4 mRNA", "setting": "1 µM, 6 h", "scale": "reference: untreated cells", "measurement": "log2 fold change", "value": 1.55}
{"Structure (SMILES)": "Cc1ncsc1-c1ccc(C(C)NC(=O)C2CC(O)CN2C(=O)C(NC(=O)CCCCCCCCCCN2CCCC(Nc3ncc(Cl)c(Nc4ccccc4S(=O)(=O)C(C)C)n3)C2)C(C)(C)C)cc1 (stereo not drawn)", "tested on": "22Rv1", "assay": "RNA-seq, refers to: NOTCH1 mRNA", "setting": "concentration not given", "scale": "reference: DMSO", "measurement": "log2 fold change", "value": -1.03}
{"Structure (SMILES)": "OC[C@@H]1[C@@H](O)[C@H](O)[C@@H](O)CN1CCCCCOCc1ccc(-c2ccc3c(c2)OCCCO3)cc1", "tested on": "GBA1 R534H", "assay": "inhibitor, 4MU-β-D-glucopyranoside", "setting": "together with: 4MU-β-D-glucopyranoside", "measurement": "IC50", "value": "3000 nM"}
{"Structure (SMILES)": "CC(C)c1ccc(N(C)c2ccc3c(c2)OCC[C@H]3CNc2cnccc2C(=O)O)cc1", "tested on": "OCUM1", "assay": "cell growth or viability, ATP luminescence", "setting": "7 days", "measurement": "IC50", "value": "7.79 nM"}
{"Structure (SMILES)": "OC[C@@H]1[C@@H](O)[C@H](O)[C@@H](O)CN1CCCCCOCc1ccc(-c2ccc3c(c2)OCCO3)cc1", "tested on": "GBA1 R534H", "assay": "inhibitor, 4MU-β-D-glucopyranoside", "setting": "together with: 4MU-β-D-glucopyranoside", "measurement": "IC50", "value": "250 nM"}
{"Structure (SMILES)": "CC(=O)[O-].O.O.O.O.[Mn+2].[O-]c1ccc(Br)cc1C=NCCN1CCOCC1", "assay": "DPPH radical scavenging", "setting": "120 µM", "measurement": "inhibition", "value": "24.8%"}
{"Structure (SMILES)": "C=CC(=O)Nc1cccc(Cn2ncc3cnc(Nc4cnn(CCOC)c4)nc32)c1", "tested on": "DMPK human", "assay": "binding, KINOMEscan", "setting": "100 nM", "scale": "lower = stronger binding", "measurement": "percent of control", "value": "89%"}
{"Structure (SMILES)": "Cn1ncc2cc(-c3cncc(Cl)c3N3CCC4(CCNC4=O)CC3)ccc21", "tested on": "LS174T", "assay": "gene expression, microarray, refers to: PTGS2 mRNA", "setting": "concentration not given, 4 h", "scale": "reference: untreated cells", "measurement": "log2 fold change", "value": -1.23}
{"note": "Some of these lines once more:"}
{"Structure (SMILES)": "Cc1ncsc1-c1ccc(C(C)NC(=O)C2CC(O)CN2C(=O)C(NC(=O)CCCCCCCCCCN2CCCC(Nc3ncc(Cl)c(Nc4ccccc4S(=O)(=O)C(C)C)n3)C2)C(C)(C)C)cc1 (stereo not drawn)", "tested on": "22Rv1", "assay": "RNA-seq, refers to: NOTCH1 mRNA", "setting": "concentration not given", "scale": "reference: DMSO", "measurement": "log2 fold change", "value": -1.03}
{"Structure (SMILES)": "CC(=O)[O-].O.O.O.O.[Mn+2].[O-]c1ccc(Br)cc1C=NCCN1CCOCC1", "assay": "DPPH radical scavenging", "setting": "120 µM", "measurement": "inhibition", "value": "24.8%"}
